Measurements collected from several papers.
Every numbered part comes from another study and shows a few of its results, in no order. Substitutions count along the parent as printed.

Block 1
Target: Interferon regulatory factor 5, full length, phosphomimetic (IRF5, Homo sapiens, UniProt Q13568-2, residues 1-514, K96S/S451D/S453D/S456D/S462D)
Technique: protein-binding microarray
Molecule type: double-stranded DNA, one strand shown
Medium: in vitro
Concentration: 250 nM
Setting: 60-bp whole probe
With: salmon DNA 0.4 mg/ml
Relative to: random background probes
Direction: higher = stronger binding
Constant ends, left off below: GCCTAGCAC … GTCTTGATTCGCTTGACGCTGCTG
`TCATTGGTTGAACATGAACTGTGCTAG` has a log fluorescence of 0.173 z-score.
For `TCAGCTTTGACTCTTTCACTGTGCTAG`, the log fluorescence was 1.37 z-score.
`TTAGGTATCCTACTGCTTGAGTGCTAG` gave a log fluorescence of -0.0847 z-score.
With `TTAGAGCTGGGGACTGGATTAGTGCTA` the log fluorescence was -0.447 z-score.
`GGCGGTCTCGGACTGGGGACGTGCTAG` gave a log fluorescence of -0.5 z-score.
`TACGGACTGCTTCTCCTGACGTGCTAG` has a log fluorescence of -0.457 z-score.
`GACGGTCTCCTTTTCTTGACGTGCTAG` has a log fluorescence of 0.0997 z-score.
`TTAGATCTCAGTATCGAATAGTGCTAG` gave a log fluorescence of 2.02 z-score.
With `AATGGAACAAATATGTTTATGTGCTAG` the log fluorescence was 0.365 z-score.
For `TCACAGTTTAATATCTAACTGTGCTAG`, the log fluorescence was 0.566 z-score.

Block 2
Target: CCND1, cyclin fold, Cln2 fusion (human)
Technique: yeast growth competition, sequencing
Medium: yeast
Setting: weak parent motif
Relative to: not given
Direction: higher = stronger binding
Starting sequence: CDC6 docking peptide (human); TLKGRRLVFDNQL; partner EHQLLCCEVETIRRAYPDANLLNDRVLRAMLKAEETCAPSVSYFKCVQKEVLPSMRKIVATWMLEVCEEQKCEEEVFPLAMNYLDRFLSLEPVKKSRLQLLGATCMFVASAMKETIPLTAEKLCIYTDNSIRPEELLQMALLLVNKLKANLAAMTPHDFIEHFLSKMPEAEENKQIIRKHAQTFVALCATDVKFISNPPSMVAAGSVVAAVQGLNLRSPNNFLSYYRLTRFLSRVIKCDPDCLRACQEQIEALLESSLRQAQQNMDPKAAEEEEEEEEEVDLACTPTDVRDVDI
`T1R` — result for “normalised enrichment score”: -0.404.
For `D10G`, “normalised enrichment score” read -0.216.
Under “normalised enrichment score”, `R5Y` is recorded as -0.131.
`R6M`: “normalised enrichment score” 1.28.
`G4D` — result for “normalised enrichment score”: 1.02.
For `T1H`, “normalised enrichment score” read 0.441.
For `K3S`, “normalised enrichment score” read 0.642.
Under “normalised enrichment score”, `K3A` is recorded as 0.432.
`Q12Y`: “normalised enrichment score” 0.427.

Block 3
Target: Histone acetyltransferase KAT6A, winged helix 2, GST fusion (KAT6A, Homo sapiens, UniProt Q92794, residues 85-181)
Technique: protein binding microarray
Molecule type: double-stranded DNA, one strand shown
Medium: in vitro
Concentration: not given
Setting: 8-mer, flanks averaged, mean of 2 arrays, mostly near background
Relative to: not given
Direction: higher = stronger binding
Residues (chain): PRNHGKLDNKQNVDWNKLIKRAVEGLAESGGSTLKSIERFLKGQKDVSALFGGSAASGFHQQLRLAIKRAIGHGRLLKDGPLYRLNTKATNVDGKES
With `CATAGAGC` the E-score was -0.0669.
The E-score of `ATGGCAAA` is reported as -0.0234.
For `ACGACCGA`, the E-score was -0.0542.
`AAAACTCC` has an E-score of 0.00962.
For `AGTGTATA`, the E-score was -0.217.
`AACATAAG` gave an E-score of -0.0428.
`GGCCACGA` has an E-score of 0.137.
With `ACCCACTC` the E-score was 0.194.
With `AGGGGTAT` the E-score was -0.191.

Block 4
Target: Sal-like protein 4, full length isoform A (SALL4, Homo sapiens, UniProt Q9UJQ4, residues 1-1053)
UniProt Q9UJQ4, sequence (whole entry, looked up): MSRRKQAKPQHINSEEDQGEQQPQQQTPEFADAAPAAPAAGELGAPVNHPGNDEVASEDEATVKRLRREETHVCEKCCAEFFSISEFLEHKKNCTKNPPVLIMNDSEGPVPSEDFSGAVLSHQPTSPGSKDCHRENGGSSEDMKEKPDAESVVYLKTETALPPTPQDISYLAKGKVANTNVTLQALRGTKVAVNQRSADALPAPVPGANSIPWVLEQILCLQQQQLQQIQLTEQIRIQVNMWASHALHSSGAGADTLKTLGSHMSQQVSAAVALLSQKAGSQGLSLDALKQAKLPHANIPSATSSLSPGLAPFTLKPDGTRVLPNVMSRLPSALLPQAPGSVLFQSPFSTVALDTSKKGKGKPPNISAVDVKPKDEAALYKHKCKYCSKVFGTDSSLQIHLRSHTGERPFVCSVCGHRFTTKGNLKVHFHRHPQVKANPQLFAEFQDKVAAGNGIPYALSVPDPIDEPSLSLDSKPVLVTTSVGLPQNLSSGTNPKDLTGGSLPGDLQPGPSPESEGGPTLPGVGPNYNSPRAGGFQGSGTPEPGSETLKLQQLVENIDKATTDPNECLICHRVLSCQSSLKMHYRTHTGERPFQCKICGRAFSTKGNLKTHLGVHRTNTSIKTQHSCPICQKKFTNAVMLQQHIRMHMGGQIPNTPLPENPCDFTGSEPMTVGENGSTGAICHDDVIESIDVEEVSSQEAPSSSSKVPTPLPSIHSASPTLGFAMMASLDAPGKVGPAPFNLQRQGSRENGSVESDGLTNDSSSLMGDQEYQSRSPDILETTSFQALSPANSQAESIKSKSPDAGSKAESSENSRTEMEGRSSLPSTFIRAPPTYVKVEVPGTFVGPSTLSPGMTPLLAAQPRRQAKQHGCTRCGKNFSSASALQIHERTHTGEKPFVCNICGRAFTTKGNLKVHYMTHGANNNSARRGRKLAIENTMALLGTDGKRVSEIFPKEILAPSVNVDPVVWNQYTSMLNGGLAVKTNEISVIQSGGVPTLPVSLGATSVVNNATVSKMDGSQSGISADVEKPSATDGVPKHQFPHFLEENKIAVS
Technique: universal PBM
Molecule type: double-stranded DNA, one strand shown
Medium: in vitro
Concentration: 600 nM
Setting: 8-mer, flanks averaged, mean of replicates
Direction: higher = stronger binding
`ACGACCGA` gave an E-score of -0.168.
`CCTACTCC` has an E-score of -0.106.
The E-score of `TGTGAAAA` is reported as 0.256.
With `GTCCTTTA` the E-score was -0.0003.
`TGAACAAA` has an E-score of 0.213.
For `ACTTTAGA`, the E-score was 0.108.
`AAGTTGAC` has an E-score of -0.056.
The E-score of `GAAACTCA` is reported as 0.143.
With `ATGCCATC` the E-score was 0.12.
The E-score of `GAGACCAC` is reported as -0.166.
The E-score of `AGTACTAA` is reported as 0.215.
The E-score of `AAGAGAAG` is reported as 0.0852.
For `ACGTAGGA`, the E-score was 0.108.

Repeated from above (block 3):
`GGCCACGA` has an E-score of 0.137.
With `ACCCACTC` the E-score was 0.194.
With `AGGGGTAT` the E-score was -0.191.
